Measurements of several laboratories.
Several values in a cell are separate wells, animals, samples, runs or records.
Target: Eukaryotic elongation factor 2 kinase (EEF2K, Homo sapiens, UniProt O00418)

| Structure (SMILES) | test | test system | conditions | scale | quantity | value |
| --- | --- | --- | --- | --- | --- | --- |
| CNC(=O)C[C@H](Cc1ccc(C#N)cc1)NC(=O)c1cc(-c2ccc(CN[C@H](C)c3ccc(C)cc3)o2)ccc1Cl | enzyme activity, inhibitor |  | 1 µM |  | activity vs control | 104% |
| O=C(O)CCC(=O)c1cccc(NS(=O)(=O)c2c[nH]c3ncccc23)c1 | kinase activity, radiometric |  | 10 µM |  | remaining activity | 106% |
| CN1CC[C@@H](COc2cnc(C#N)cc2-c2ccn3nc(NC(=O)C4CC4)cc3c2)C1 | enzyme activity, inhibitor |  | 1 µM |  | inhibition | -2% |
| O=C(Cc1ccc(OCc2ccccc2)cc1)NC1(C(=O)O)CCN(C(=O)c2ccc(-c3cccc(Cl)c3)cc2)CC1 | enzyme activity, inhibitor |  | 10 µM |  | activity vs control | 121% |
| CS(=O)(=O)Nc1cccc(-c2csc3cnc(Nc4ccc(N5CCN(CCCCCOc6cccc7c6C(=O)N(C6CCC(=O)NC6=O)C7=O)CC5)cc4)nc23)c1 (stereo not shown) | probe labelling, inhibitor, KiNativ chemoproteomics | MOLT-4 | 1 µM |  | inhibition | -20.9% |
| O=C=[N][Ru-4]123([n]4c5ccc(O)cc5c5c6c(c7cc(F)c[n+]1c7c54)C(=O)NC6=O)[S+]1CC[S+]2CC[S+]3CC1 (stereo not shown) | enzyme activity |  | 100 nM, human enzyme, with: 10 µM ATP | reference: untreated | remaining activity | 107% |
| COc1c(OCCCN2CCOCC2)ccc2c1N=C(NC(=O)c1cnc(N)nc1)N1CCN=C21 | kinase activity, inhibitor |  | 1 µM | reference: untreated control | remaining activity | 112% |
| CCn1cc(C(=O)O)c(=O)c2c(N)c(F)c(NC3CCCCC3)cc21 | kinase activity |  | 0.1 µM, with: ATP at Km |  | inhibition | 8% |
| Cc1nc2c(F)cc(-c3nc(Nc4ccc(CNC(=O)CCCCCCC(=O)NO)cc4)ncc3F)cc2n1C(C)C | enzyme activity, inhibitor |  | 1 µM |  | inhibition | 4% |
| Nc1nc(Nc2ccccc2)sc1C(=O)c1ccccc1 | enzyme activity, inhibitor |  | 10 µM |  | remaining activity | 84% |
| COCC12C(=O)NC3C4(C(OC)CC1O)C1CC5(O)C(OC)C(O)C(OC(C)=O)(C1C5OC(=O)c1ccccc1)C3(O)C(OC)C24 (stereo not shown) | kinase activity, inhibitor, ProQinase kinase profiling |  | 25 µM | reference: control | remaining activity | 116% and 111% |
| CN1CCN(Cc2ccc(-c3ccc(CO[C@H]4CCC[C@@H]4NC(=O)c4cc(-c5cnn(C)c5)cnc4N)cc3)cc2)CC1 | enzyme activity, inhibitor |  | 0.1 µM |  | inhibition | -21% |
| Cc1cccc(-c2ccc3nc(NC(=O)C4CCCO4)nn3c2)c1 (stereo not shown) | enzyme activity, Dundee kinase panel |  | 10 µM |  | remaining activity | 107% |
| c1ccc2c(Nc3cc(C4CCC4)[nH]n3)nc(Nc3ccc4nc[nH]c4c3)nc2c1 | enzyme activity, inhibitor |  | 0.25 µM |  | remaining activity | 99% |
| Cc1cccc(-c2ccc3nc(NC(=O)C4CCOCC4)nn3c2)c1 | enzyme activity, Dundee kinase panel |  | 10 µM |  | remaining activity | 107% |
| C=CC(=O)N1Cc2nc(-c3cc(-c4cc(Cl)cnc4Cl)c(F)cc3F)n(-c3ccncn3)c2C1 | cell-free assay, inhibitor |  | 1 µM |  | inhibition | 8.2% |

Excerpt of the above:
| Structure (SMILES) | test | test system | conditions | scale | quantity | value |
| --- | --- | --- | --- | --- | --- | --- |
| CNC(=O)C[C@H](Cc1ccc(C#N)cc1)NC(=O)c1cc(-c2ccc(CN[C@H](C)c3ccc(C)cc3)o2)ccc1Cl | enzyme activity, inhibitor |  | 1 µM |  | activity vs control | 104% |
